Measured values collected from several papers.
Numbered parts are unrelated; each lists some results of a single study.

Set 1
Target: Histone acetyltransferase KAT6A, both winged helices, GST fusion (KAT6A, Homo sapiens, UniProt Q92794, residues 1-181)
Technique: protein binding microarray
Form: double-stranded DNA, one strand shown
Matrix: in vitro
Tested at: not given
Setting: 8-mer, flanks averaged, mean of 2 arrays, mostly near background
Baseline: not given
Reading: higher = stronger binding
Target sequence (chain): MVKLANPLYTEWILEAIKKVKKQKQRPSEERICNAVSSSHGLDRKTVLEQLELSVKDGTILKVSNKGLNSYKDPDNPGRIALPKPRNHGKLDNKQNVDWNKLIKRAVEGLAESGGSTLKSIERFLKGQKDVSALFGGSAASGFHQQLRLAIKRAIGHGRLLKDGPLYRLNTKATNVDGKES
| Oligonucleotide | E-score |
| --- | --- |
| CACGTATG | -0.00138 |
| GGCCACGA | -0.0407 |
| CACAGGAA | -0.106 |
| AAGGTTGT | -0.0503 |
| CGTCGATC | 0.0565 |
| CGAGGCCA | -0.178 |
| CCTACTAA | -0.129 |
| CCGGAAGC | 0.168 |
| CGCCCAGC | 0.106 |
| AACGGTGA | 0.107 |
| AGTATGTC | -0.114 |
| CCTGCTTC | -0.0457 |
| ACGCAGAC | 0.113 |
| CTAGGTTA | -0.119 |
| AAAAACCC | -0.0366 |
| CTTGCACC | -0.0764 |
| AAAACTCT | -0.0224 |
| ATCCGTCA | 0.162 |
| AGTTAACC | 0.052 |
| ACTACCAT | -0.131 |

Set 2
Target: RNA binding protein fox-1 homolog 2, RRM domain, GST-SBP tag (RBFOX2, Homo sapiens, UniProt O43251-10, residues 100-194)
Technique: RNA Bind-n-Seq
Form: RNA
Matrix: in vitro
Tested at: 365 nM
Setting: natural RNA segment, single round, ends assumed
Baseline: no-protein control
Reading: higher = stronger binding
Constant ends, left off below: GGGAGUUCUACAGUCCGACGAUC … UGGAAUUCUCGGGUGCCAA
Residues (chain): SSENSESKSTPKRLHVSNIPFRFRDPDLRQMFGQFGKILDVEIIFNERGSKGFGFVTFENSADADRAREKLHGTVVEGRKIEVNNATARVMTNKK
| Oligonucleotide | RBNS enrichment (R) |
| --- | --- |
| GAUCUCUUGCCAGUUGUGAAUAAGACAGAAAGACUGUGUUCUCUGUUACGUAAGAAGGGUCUUUGGUAGAAGAAAUUGCUCGUGUUUACACAGCUGUGGAUGCCAUGAAG | 1.09 |
| AACUAAGAACUUUCUGGAGCCUGGUGCCCUACUACCUUCCUGCCUCAGAAGAGCUCAUGUCCUGGGACGGUGGUGCUGGAGCCUGGGCGAGCCUUCCACUCUCCCACGGU | 0.983 |
| GAAGUAUGGGUUCUCUCAGAGGAAAGGUUAUGAAAUUCUGUUGUGUGCAUAGUAAGACUGCCUGGCUAAAUUAGGCCUCACUGGCGAUAGAACAGACUUACUGAAGUUUA | 0.874 |
| ACAUUUGCCAGAAUAUAAGAGUUUUGUUUUAAAUACAGUCUUGUUAGGAUUUUACGUUAUUGUUAUUAUGGAAAGUGAUUGUGAUGCUAUUUAUCUUCAGGGUCACUCUG | 0.845 |
| CAAGAGGGAGAGAGGCUUCAGAACCAGUCCUCCUUUCAUUUCAAAACCCCAGCGGGCCCUCUGGAGUCCGCCCUGCCCCUCCCCCGGCCCCCCAUCCCUCACUUCUGGGC | 0.405 |
| CAUCCCCACUGCUAACUUGGGGCUGGGGCCUCCCUUUCACAGAUACCUUGGGUUUGUGCAUGUUUUCUGCUGGGUGGGAUCUGAGGGUGAUUUCUCUUUUACCUGUACAU | 5.62 |
| UUUCAAAGAAUAAAAGCCUUUGGAGAGUUGCGGCAGUUCUGGGGGCGGGCUCAGGAGAGUCCAUAGAUCAGCCGUAACUGGAACGUAGAAUCUACGUCUGCCUCUGAAUG | 0.319 |
| AGGAAGAACAGCUGAUAGAAAUUCAAGAUUACUAUAAUGGCUGUUAUUAUACACAGCUCUGUAAACUACCACUCAGCCCUGUGUUGGGGUCCUCAAAGAAGUAAGGCCAC | 0.299 |
| CAGUUUAAAACAUGCCAUCUCAUCGGUAGUCCCUGCUCUUUUCCCUCUCCCAUCUGCCAGUCUCUCUGUGCCCUCGUGUCUGAGUGCUGUUUGCCCACCUUUUCCAGGUG | 0.373 |

Set 3
Target: Interferon regulatory factor 7, full length, phosphomimetic (IRF7, Homo sapiens, UniProt Q92985, residues 1-503, S101K/S471D/S472D/S475D/S476D/S477D/S483D/S484D/S487D)
Technique: protein-binding microarray
Form: double-stranded DNA, one strand shown
Matrix: in vitro
Tested at: 250 nM
Setting: 60-bp whole probe
Added: salmon DNA 0.4 mg/ml
Baseline: random background probes
Reading: higher = stronger binding
Constant ends, left off below: GCCTAGCAC … GTCTTGATTCGCTTGACGCTGCTG
Residues (chain): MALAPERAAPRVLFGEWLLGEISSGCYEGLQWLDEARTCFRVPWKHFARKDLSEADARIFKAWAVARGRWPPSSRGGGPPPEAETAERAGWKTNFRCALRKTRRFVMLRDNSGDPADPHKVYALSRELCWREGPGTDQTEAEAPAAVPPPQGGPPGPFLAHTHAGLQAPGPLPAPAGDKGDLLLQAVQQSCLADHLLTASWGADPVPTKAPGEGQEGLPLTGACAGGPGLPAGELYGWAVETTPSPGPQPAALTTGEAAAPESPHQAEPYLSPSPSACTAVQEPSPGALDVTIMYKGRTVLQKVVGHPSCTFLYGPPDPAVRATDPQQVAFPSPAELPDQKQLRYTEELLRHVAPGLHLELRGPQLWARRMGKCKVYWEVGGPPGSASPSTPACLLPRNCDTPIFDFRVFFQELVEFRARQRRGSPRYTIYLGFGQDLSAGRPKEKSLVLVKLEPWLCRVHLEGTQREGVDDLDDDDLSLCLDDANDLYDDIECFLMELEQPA
| Oligonucleotide | log fluorescence [z-score] |
| --- | --- |
| TGAGGTTCCGGTTTCGGTTAGTGCTAG | 11.4 |
| GACGAACTGGGGTATCGAAACGTGCTA | -0.14 |
| TTAGGACTGGGTATCAGTTAGTGCTAG | -0.247 |
| TTAGAACTGCGGTTTCGATTAGTGCTA | 7.78 |
| GACGGACTGGGGTTTCGTGACGTGCTA | -0.0606 |
| TTAGGACAGCTACTGCTTTAGTGCTAG | -0.314 |
| TTAGGTAGCGGACTGGGTTAGTGCTAG | -0.604 |
| TTCCCTCTGCTCCTCTTTTTGTGCTAG | 1.17 |
| GACGGTATCGACACTGGGGTCGTGCTA | -0.288 |
| AACTCTCTAATTTTGAGACTGTGCTAG | 0.178 |
| TTAGGAATCGACTTTCGGTTAGTGCTA | 2.35 |
| TCACCTCTCACGCATCTGACTGTGCTA | -0.0702 |
| TCACCTTGCTTTATGTGACTGTGCTAG | 0.338 |
| GACGGTATCGAGTATCGGGACGTGCTA | 0.128 |
| TCACTGTTCTTTTCAGTACTGTGCTAG | 0.644 |
| TCATATTTAAGGCATCTGACTGTGCTA | 0.0572 |
| TCAGTCCTCACTTCCTTCTGGTGCTAG | 0.962 |
| CCGCTTTTTTTTTTTTTTTTGTGCTAG | 0.994 |
| TCATAATTTACTTTGGTACTGTGCTAG | 0.445 |
| TCATTTTTCTAAGTAAAACTGTGCTAG | 1.34 |
| TTAGGTTACCTACTGCTTTAGTGCTAG | -0.134 |
| AACGGTTTCGGGTATCGGGACGTGCTA | 7.94 |
| TTTGGTATCGGACTGGGTTAGTGCTAG | 0.189 |
| GACGGTATCCTTTTCCTGGCGTGCTAG | 0.972 |
| GACGGACTGGACTATCCGGACGTGCTA | -0.607 |

Set 4
Target: RING finger protein unkempt homolog, zinc fingers 1-6, GST-SBP tag (UNK, Homo sapiens, UniProt Q9C0B0, residues 30-357)
Technique: RNA Bind-n-Seq
Form: RNA
Matrix: in vitro
Tested at: not given
Setting: RNA with constant flanks, human and mouse sites, ends assumed
Baseline: input RNA pool
Reading: higher = stronger binding
Constant ends, left off below: GGGAGUUCUACAGUCCGACGAUC … CAACAGAGGAUUGAGCAUCA
Residues (chain): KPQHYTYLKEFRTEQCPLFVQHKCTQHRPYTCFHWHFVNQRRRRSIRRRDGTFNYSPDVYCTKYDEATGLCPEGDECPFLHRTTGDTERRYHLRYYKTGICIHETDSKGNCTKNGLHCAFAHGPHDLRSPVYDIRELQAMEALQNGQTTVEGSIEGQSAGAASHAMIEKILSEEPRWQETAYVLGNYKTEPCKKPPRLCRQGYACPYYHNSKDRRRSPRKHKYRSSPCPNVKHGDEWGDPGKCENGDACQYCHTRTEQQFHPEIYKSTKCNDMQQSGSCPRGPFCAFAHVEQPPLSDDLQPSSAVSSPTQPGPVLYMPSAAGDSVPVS
| Oligonucleotide | bound/input enrichment [ratio] |
| --- | --- |
| CUUCAAUUUUUAAAAGGCAAAACAUUGUUCAAAGCUUAAAGUUUUGAGCUUGAAACAUAGUUUAGAUUUAAACAGUUGUAUGGGAACACAUCCUCUGCUUUAUACAGUUGGAAGUCCUCC | 0.283 |
| CCUAGUCAUUCAUUGCUAACAGGGGAUCAUGAGGGACCCUGUAAGUAGCCAGUACAGCUCCUUUCUUUUCUGGAGGAUGCCCAUCCCAGAACUGGAUCUGUCGGAGCUGGAAGGCCUGGG | 0.324 |
| CCUGUACCCGCACCCCUGCCCAUGUGUACUGUAUGUGCCCCCAAAUGGAUGAGAGAUGGAAAUAGAAAGAGGGGGCCCGAGCCCAGCCCCCAGCUCAGCCCGAAGCACUUAACCAGUCCC | 0.538 |
| GAACUAUCCGGGACCCAGAAAAGCCCAAUACUUUAGAAGAACUGGAAGUGGUCACAGAGAGUUGUGUGGAAGUUCAAGAAAUAAAUGAAGAUGACUAUUUGGUUAUUAUCAAGUUCACAC | 0.384 |
| AGAGGUGCAAAGAAGACUGCAGAGAUGAAUGAAAAGCUCUCCAAGAUGGGCGAAAGUUCACUUAGAAACUUUACAAUGGAUACAGAGUCAAGUGUUUAUAACUUCGAAGGAGAAGACUAU | 0.599 |
| ACCUCAAACCAGAAAUACCUCAGAAUUUUCUACUUAUGUAAGGUUUAUUAUAUAUUUUGUUAGUUGUGUUGUCUUGUAGUAAGUAUAUUUUAAUGUAAGUUGGCUUUUGUGACAAGGAAG | 10.1 |
| GGAAAAAGUCUACAGGGUGAUCCAGCAGCAGCUCUGCUUGAGGUGUUGGAUCCUGAACAAAACCAUAACUUCACAGAUCAUUAUCUAAAUGUGGCCUUUGACCUUUCUCAAGUUCUUUUU | 0.1 |
| UAGCCAAGGUUUUUACAAAGGGGAAAGGAAAAGAAAACAAAAACGCAAGCUCCAUGUGUAUAGCUGAACUUUUAUAUGUUUCUUGCCAGCCCCUCCGCUCCCUUCCAUCUCUAGCCUCUG | 0.239 |
| UCCUCGAUGUCUAAGGGUUGCUUUGUUUUUAAGCCAAACUCCAAAAAGAGAAAGAUCUCUCUGCCAAUAGAGGACUAUUUUAACAAAGGGAAAAAUGAGCCUGAGGACAGUAAGCUUCGA | 0.138 |
| CAGAAUAAUAAGCUGAAUAGAAUCUGACCAUUGGCUUUCACCUGGCCAGGACCUUCUAUGUAGCUCUCCUUUUGUGGCCCAUGUGCUGCAUCCUCUGCCCUCAGUGUGCAACUGGCCCCC | 0.296 |
| GCUAACCAGGCGUCCGCUACUUCAGAAGAGUGUACUGUCGCAUGGGGAGUCUGUAACCAUGCUUUUCACUUCCACUGCAUCUCUCGCUGGCUCAAAACACGACAGGUGUGUCCAUUGGAC | 0.0585 |
